# Measurements of several laboratories.
# Parts stem from different laboratories: compare values within a part only. Substitutions count along the parent as printed.

# Sample 1 — method: DHFR PCA, deep sequencing; matrix: yeast; with: (+)-ABA 58 µM; baseline: wild-type fitted maximum; direction: higher = stronger binding
# Target: ABI1, truncated, D143A, DHFR fusion (Arabidopsis thaliana)
# Setting: methotrexate growth selection, single substitutions
# Parent: PYL1, truncated, DHFR fusion (Arabidopsis thaliana); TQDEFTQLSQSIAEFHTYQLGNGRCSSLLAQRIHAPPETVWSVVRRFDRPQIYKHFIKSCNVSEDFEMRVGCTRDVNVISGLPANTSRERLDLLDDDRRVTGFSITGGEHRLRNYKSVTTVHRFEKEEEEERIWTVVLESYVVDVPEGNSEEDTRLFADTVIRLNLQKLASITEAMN; partner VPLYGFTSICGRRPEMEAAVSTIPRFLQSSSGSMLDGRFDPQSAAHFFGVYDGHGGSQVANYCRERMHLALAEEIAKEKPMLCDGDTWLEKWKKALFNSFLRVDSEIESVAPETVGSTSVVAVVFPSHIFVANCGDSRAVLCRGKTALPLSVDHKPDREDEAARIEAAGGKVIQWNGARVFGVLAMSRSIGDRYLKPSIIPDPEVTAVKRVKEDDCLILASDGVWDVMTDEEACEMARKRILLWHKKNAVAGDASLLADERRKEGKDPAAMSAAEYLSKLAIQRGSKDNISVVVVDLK
Variant,relative binding score [%]
R46G,55
S9T,86.3
S140Y,18.7
I79W,85.9
R99T,43.8
C72P,3.14
R32P,63.7
P36E,80.8
Q2I,92.9
S11D,87.7
T73W,80.8

# Sample 2 — target: CCNF, cyclin fold, Cln2 fusion (human); method: yeast growth competition, sequencing; matrix: yeast; setting: strong parent motif; baseline: not given; direction: higher = stronger binding
# Parent: SAMHD1 docking peptide (human); ASKSRVQLFKDDP
Variant,normalised enrichment score
ASKSRVQLFKDNP [D12N],0.975
ASKSRVQIFKDDP [L8I],-0.0715
ASKSRVQGFKDDP [L8G],-0.215
ASKSRVQLFKCDP [D11C],0.977
ASPSRVQLFKDDP [K3P],0.523
ACKSRVQLFKDDP [S2C],2.85
ASKSRVKLFKDDP [Q7K],0.76
ASQSRVQLFKDDP [K3Q],1.11
ASKHRVQLFKDDP [S4H],1.29
ASESRVQLFKDDP [K3E],0.0597
ASKSFVQLFKDDP [R5F],0.0242

# Sample 3 — method: protein-binding microarray; form: double-stranded DNA, one strand shown; matrix: in vitro; concentration: 250 nM; setting: 60-bp whole probe; with: salmon DNA 0.4 mg/ml; baseline: random background probes; direction: higher = stronger binding; constant ends, left off below: GCCTAGCAC … GTCTTGATTCGCTTGACGCTGCTG
# Target: Interferon regulatory factor 7, full length, phosphomimetic (IRF7, Homo sapiens, UniProt Q92985, residues 1-503, S101K/S471D/S472D/S475D/S476D/S477D/S483D/S484D/S487D)
# Target sequence (chain): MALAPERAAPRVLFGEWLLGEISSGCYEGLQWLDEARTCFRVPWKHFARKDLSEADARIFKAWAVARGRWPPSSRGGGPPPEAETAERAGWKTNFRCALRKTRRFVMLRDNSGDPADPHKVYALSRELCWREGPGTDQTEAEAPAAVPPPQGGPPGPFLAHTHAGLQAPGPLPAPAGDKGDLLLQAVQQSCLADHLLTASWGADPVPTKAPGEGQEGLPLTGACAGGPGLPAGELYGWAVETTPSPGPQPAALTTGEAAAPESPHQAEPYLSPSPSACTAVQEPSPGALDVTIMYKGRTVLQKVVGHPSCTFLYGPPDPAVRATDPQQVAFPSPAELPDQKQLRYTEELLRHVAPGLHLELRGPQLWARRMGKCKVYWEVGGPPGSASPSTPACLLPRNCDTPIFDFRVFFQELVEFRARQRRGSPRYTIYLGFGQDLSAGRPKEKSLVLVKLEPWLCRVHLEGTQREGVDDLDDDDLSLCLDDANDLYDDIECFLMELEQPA
Sequence,log fluorescence [z-score]
GAAGGACTGGGGTTTCGGGACGTGCTA,1.14
GACGACATCAGTCTCGAGACGTGCTAG,0.166
TTAGGACGGGACTTTCGGTTAGTGCTA,0.662
GACGGTTCCTTTTTCCTGACGTGCTAG,2.4
TTAGAACTGAGTTTCGATTTGTGCTAG,12.9
TTAGGTTTCCGACTGGGTTAGTGCTAG,0.881
TTAGGTCTCCTACAGCTTTAGTGCTAG,-0.291
TACGGTTCCGGTTTCGGGACGTGCTAG,7.85

# Mixed results
Molecule,target,test,test system,setting,how to read,quantity,result
"PhoQ, residues 284 288 289 292 302 303 SLKLQV","PhoP, residues 12 14 15 18 19 NQGLL (Escherichia coli, UniProt P23836)","Sort-seq, item: YFP reporter",E. coli,"PhoQ-PhoP variant library, with: 10 µM Mg2+","baseline: high Mg2+ state, higher = stronger signaling",fold induction,5.93

# Some of these lines once more (sample 3):
Sequence,log fluorescence [z-score]
GACGACATCAGTCTCGAGACGTGCTAG,0.166
TACGGTTCCGGTTTCGGGACGTGCTAG,7.85
GAAGGACTGGGGTTTCGGGACGTGCTA,1.14
TTAGGTCTCCTACAGCTTTAGTGCTAG,-0.291
